Experimental data collected from several papers.
Each numbered part is a random draw from the data of one study; scales do not carry over between parts.

Set 1
Target: RAC-gamma serine/threonine-protein kinase (AKT3, Homo sapiens, UniProt Q9Y243)
Chain of UniProt Q9Y243 (whole entry, looked up): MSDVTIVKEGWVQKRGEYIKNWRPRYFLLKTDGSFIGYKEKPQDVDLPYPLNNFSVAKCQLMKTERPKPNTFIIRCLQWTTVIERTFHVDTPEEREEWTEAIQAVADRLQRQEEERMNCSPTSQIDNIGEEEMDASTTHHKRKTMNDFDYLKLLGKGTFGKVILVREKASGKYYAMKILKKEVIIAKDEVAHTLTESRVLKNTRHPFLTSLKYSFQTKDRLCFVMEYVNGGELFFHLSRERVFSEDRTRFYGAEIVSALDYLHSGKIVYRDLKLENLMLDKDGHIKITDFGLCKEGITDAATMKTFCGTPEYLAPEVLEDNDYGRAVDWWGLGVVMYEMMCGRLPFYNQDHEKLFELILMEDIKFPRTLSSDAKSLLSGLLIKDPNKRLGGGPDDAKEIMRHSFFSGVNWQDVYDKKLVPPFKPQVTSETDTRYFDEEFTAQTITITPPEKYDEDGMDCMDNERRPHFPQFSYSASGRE
Observed: enzyme activity
Action: inhibitor
Concentration: 0.5 µM
Reference: control
`COc1cc2ncnc(Nc3ccc(Oc4ccccc4)cc3)c2cc1OC` gave a remaining activity of 105%.
`O=C(Nc1cccc(Nc2cc(Nc3cccc(C(F)(F)F)c3)ncn2)c1)C1CC1` gave a remaining activity of 99.4%.
The remaining activity of `O=C1NC(=O)C(c2cn(CCCO)c3ncccc23)=C1c1cnccn1` is reported as 101%.
`OCC(O)CCON=C1C(c2c(O)[nH]c3ccccc23)=Nc2ccccc21` (centres unmarked) gave a remaining activity of 92.9%.

Set 2
Target: 5-hydroxytryptamine receptor 7 (HTR7, Homo sapiens, UniProt P34969)
Chain of UniProt P34969 (whole entry, looked up): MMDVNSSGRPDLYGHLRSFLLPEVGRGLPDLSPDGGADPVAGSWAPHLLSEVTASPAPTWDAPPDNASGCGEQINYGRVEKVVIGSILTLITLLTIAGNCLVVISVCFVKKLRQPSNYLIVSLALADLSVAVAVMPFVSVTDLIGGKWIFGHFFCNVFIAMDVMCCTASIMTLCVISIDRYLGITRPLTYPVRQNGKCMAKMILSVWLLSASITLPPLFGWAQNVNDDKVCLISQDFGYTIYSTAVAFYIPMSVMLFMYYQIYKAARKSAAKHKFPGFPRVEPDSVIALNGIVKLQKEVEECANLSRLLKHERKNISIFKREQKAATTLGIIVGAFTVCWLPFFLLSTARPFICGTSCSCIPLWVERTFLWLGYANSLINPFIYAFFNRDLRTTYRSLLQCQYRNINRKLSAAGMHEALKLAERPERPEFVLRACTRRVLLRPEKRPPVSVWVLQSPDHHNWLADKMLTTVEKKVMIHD
Observed: ligand displacement
Concentration: 10 µM
`CN1CCN(C(=O)C(C)(C)c2ccc(C(=O)Nc3cn4cc(-c5cc(C(C)(C)C)cc(C(C)(C)C)c5)ccc4n3)cc2)CC1` has an inhibition of 45.2%.
For `NS(=O)(=O)c1cc(NC(=O)Cc2ccccc2)ccc1Oc1cccc(Cl)c1`, the inhibition was 35.2%.
`COCCOc1nc(-c2ccc(Cl)nc2)nc2c1CN(C(=O)c1ncn3ccccc13)CC2` has an inhibition of 42.3%.
`CN(C)C(=O)c1sc2nc(N3CCC(S(C)(=O)=O)CC3)cc(C(F)(F)F)c2c1N` gave an inhibition of 2.32%.

Set 3
Target: RNA binding protein fox-1 homolog 2, RRM domain, GST-SBP tag (RBFOX2, Homo sapiens, UniProt O43251-10, residues 100-194)
Method: RNA Bind-n-Seq
Molecule type: RNA
Sample: in vitro
Concentration: 365 nM
Setting: natural RNA segment, single round, ends assumed
Reference: no-protein control
Reading: higher = stronger binding
Residues (chain): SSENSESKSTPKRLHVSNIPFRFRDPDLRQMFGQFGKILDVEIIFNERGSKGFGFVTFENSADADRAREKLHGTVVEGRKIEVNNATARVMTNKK
`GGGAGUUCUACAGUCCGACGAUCGGACUCUGCUCAGCCCUCUGUAUAUCACUGUCAGGGUGGGUACGGCUCAUUGGUUCUGAUUUGCCCACUAAGGGUACAUGUGCGCUUAGUACAUUUGUAAAUACUCAGUUUGGAAUUCUCGGGUGCCAA` — result for “RBNS enrichment (R)”: 0.181.
`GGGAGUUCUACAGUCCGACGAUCGGUUUUCAUCGGCUGUGCCAUUUCCCAACGUCUUUUGGGAUUUACAUCUGUCUGUGUUAAAAUAAUCAAACGAAAAAUCAGUCCUGUGUUGUCAGCAUGAUUCAUGUAUUUGGAAUUCUCGGGUGCCAA`: “RBNS enrichment (R)” 0.941.
Under “RBNS enrichment (R)”, `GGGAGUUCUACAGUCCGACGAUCGUCUGGGCUGGGGCAGGGAUUGCUCAGUGGAAGCAGGACUGGGGGUCUGGCUUGCCCCCUCCCUGGGCCUCCAUCACCCCUGAGCAUCCCUCUGGACUCAGAGGGAACAAUGGAAUUCUCGGGUGCCAA` is recorded as 0.492.
Under “RBNS enrichment (R)”, `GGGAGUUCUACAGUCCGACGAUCGAGAACCGCCUUUCUCAUAUUUCCUGAAUGGGGUUUGACUCUAUUUGGGGAAAACAUUGCUUUUGGUCCCCCUCCCCAAUAUGCACACCUGCCUUUGCCACUACAUAGGCUGGAAUUCUCGGGUGCCAA` is recorded as 0.546.
For `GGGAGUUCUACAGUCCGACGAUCUACAGUUUUACAUUUAAACGCACAGUCUUACGUGGACAAAUGCAAGCACAAGCCUAAAGCAAGGUCAAGCAGAUGGCAAAACCGAAUUUGCCUGCAAAGAAAUCUAUUUAUGGAAUUCUCGGGUGCCAA`, “RBNS enrichment (R)” read 0.438.
`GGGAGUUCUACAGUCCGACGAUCAGAAACUUAAGUAAAUAUGGCUUACACCCUAACACUGGGGUGGUUUUCUUUUCUAAUGUAGCUUUCCCUGUUGAGGCUAUUGUUUCUUCUUAAUUUAUAUUAUAUUUUAAUGGAAUUCUCGGGUGCCAA`: “RBNS enrichment (R)” 0.544.
`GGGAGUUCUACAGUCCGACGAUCUUUCUCGGCCUCCCAAAGUGCUGGGAUUACGGGUGUGAGCCACCGUGCCCGGCCUGCAAACACAUUUUAAUUGACAACACUAGGGCUGUUGUACAAAAUAGUAAUGAUAGUGGAAUUCUCGGGUGCCAA`: “RBNS enrichment (R)” 0.76.
Under “RBNS enrichment (R)”, `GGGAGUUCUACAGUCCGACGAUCCAGGACGCUGAGGUACUUACUACCCUGGUCUCGGGAACUGCCUGCCUAGGGCAACAGAUGUCCUGACUAAUCUGGCUUCUGGUUCCCGGUCCAUCCCUAUUUACAAAGCUUGGAAUUCUCGGGUGCCAA` is recorded as 0.198.

Single results of other studies
`MDH2 (Homo sapiens, UniProt P40926)` — result for cross-linked residues: “E232 to D648” (MAP1B (Homo sapiens, UniProt P46821); cross-linking MS; cell fractions; together with: DHSO).
